Experimental data collected from several papers.
Protocols differ between the studies behind these lines. ± gives the spread as reported.

CC(C)CN(C[C@@H](O)[C@H](Cc1ccccc1)NC(=O)O[C@H]1CCOC1)S(=O)(=O)c1ccc(N)cc1 has an inhibition of -1.39% (Replicase polyprotein 1ab, main protease (rep, Severe acute respiratory syndrome coronavirus 2, UniProt P0DTD1); reporter gene (Gaussia luciferase), inhibitor; 20 µM).
`TESIVRFPNITNL`: “frequency of responding donors” 40 (AIM; peptide, CD8+ T cells from PBMC, human donors; HLA-B*40:01 restricted, unit not given; reference: positive over tested donors).
CC[C@H](C)[C@H](NC(=O)[C@H](CC(C)C)NC(=O)[C@H](Cc1c[nH]c2ccccc12)NC(=O)[C@H](CCC(N)=O)NC(=O)[C@@H](NC(=O)[C@H](Cc1ccccc1)NC(=O)[C@H](C)NC(=O)[C@H](CCCCNC(=O)COCCOCCNC(=O)COCCOCCNC(=O)CC[C@H](NC(=O)CCCCCCCCCCCCCCCCCCC(=O)O)C(=O)O)NC(=O)[C@H](CCC(N)=O)NC(=O)[C@H](C)NC(=O)[C@@H](NC(=O)[C@H](CCCCN)NC(=O)[C@H](CC(=O)O)NC(=O)[C@H](CC(C)C)NC(=O)C(C)(C)NC(=O)[C@@H](NC(=O)[C@H](CO)NC(=O)[C@H](Cc1ccc(O)cc1)NC(=O)[C@H](CC(=O)O)NC(=O)[C@H](CO)NC(=O)[C@@H](NC(=O)[C@H](Cc1ccccc1)NC(=O)[C@@H](NC(=O)CNC(=O)[C@H](CCC(=O)O)NC(=O)C(C)(C)NC(=O)[C@@H](N)Cc1ccc(O)cc1)[C@@H](C)O)[C@@H](C)O)[C@@H](C)CC)[C@@H](C)CC)C(C)C)C(=O)N[C@@H](C)C(=O)NCC(=O)NCC(=O)N1CCC[C@H]1C(=O)N[C@@H](CO)C(=O)N[C@@H](CO)C(=O)NCC(=O)N[C@@H](C)C(=O)N1CCC[C@H]1C(=O)N1CCC[C@H]1C(=O)N1CCC[C@H]1C(=O)N[C@@H](CO)C(N)=O has a serum AST of 22.1 ± 7 U/L (healthy subjects, single ascending dose; 0.5 mg, day 29).
`AISDYDYYR` has a positive donors of 1 donors (human PBMC CD8+ T cells; T cell response; peptide).
With Nc1ncnc2c([C@@H]3N[C@H](CO)[C@@H](O)[C@H]3O)c[nH]c12 the antigen-positive cells was 67.3% (Zaire ebolavirus; antibody staining; human macrophages; 6.3 µM).
